Assay results gathered from unrelated publications.
Lines come from different studies, so protocols differ. Several values in a cell are separate wells, animals, samples, runs or records. ± gives the spread as reported.

CC(=O)c1c(C)c2cnc(Nc3ccc(C4CCN(CCS(C)(=O)=O)CC4)cn3)nc2n(C2CCCC2)c1=O  AUC(0-inf) (human, plasma; oral, 25 mg once daily, day 21, multiple doses): 397 ng·h/mL
COc1cccc([C@]2(C)CCN(C[C@@H](NC(=O)[C@H]3Cc4ccc(O)cc4CN3)C(C)C)C[C@@H]2C)c1  Kp (rat; intraperitoneal, 5 mg/kg, brain over plasma AUClast): 2.27
CN1CC[C@@H](c2c(O)cc(O)c3c(=O)cc(-c4ccc(C(F)(F)F)cc4Cl)oc23)[C@@H]1CO  patients with adverse event (measured: Dizziness; B-cell malignancies; oral, 150 mg, intermittent dosing): 33.3%
O=c1nc(NO)ccn1[C@@H]1O[C@H](CO)[C@@H](O)[C@H]1O  bench-top stability (rat amniotic fluid dialysate; 25 ng/mL, 6 h, room temperature, low concentration, with: molnupiravir 5 ng/mL): 98.07 ± 0.86%
COc1ncccc1-c1cnn2ccc(N3CCN(C(=O)OC(C)C)CC3)nc12  drug concentration (rat, STZ model, brain; oral, 10 mg/kg, 240 min): 5040 nM
O=C(O)CCCOc1ccc(F)cc1-c1cc(-c2ccccc2C(F)(F)F)n(-c2ccccc2)n1  organ weight (male Crl:CD(SD) rats, testes; intravenous, 25 µg/kg, 14 d): 3.2 ± 0.56 g
COc1ccc(C[C@@H]2NC(=O)[C@H]([C@@H](C)O)NC(=O)[C@@H]3[C@@H]4CCN3C(=O)[C@@H]3Cc5cn(c6ccc(F)cc56)CCCCCCN(Cc5ccc(cc5)CCNC(=O)[C@]5(C)CCCN5C2=O)C(=O)CCC(=O)N[C@@H](C)C(=O)N[C@H](CNC(=O)CCCCC[N+](C)(C)C)C(=O)N[C@@H](Cc2cccc(c2)CNC(=O)CO4)C(=O)N3)cc1  participants with adverse event (measured: neck pain; human; dose not given): 3.2%
COc1ccc(-c2c(-c3ccc(C#N)c(F)c3)nc(N3CCC(N)CC3)n(C)c2=O)cc1F  serious adverse event incidence (measured: Chest pain; human patients; oral, dose not given, dose escalation, NG): 0%
Cc1ccc(S(=O)(=O)Nc2c(N[C@H]3CC[C@H](NC(=O)Nc4ccc(F)c(Cl)c4)CC3)c(=O)c2=O)cc1  AUC(0-inf) (rat, plasma; intravenous, 10 mg/kg): 1.85 µM·h
CC(C)Nc1ccnc(Nc2cccc(-c3cccnc3)c2)n1  blood chemistry (measured: Glucose; mouse, blood; intraperitoneal, 3 mg/kg): 210 mg/dL
Cn1cncc1-c1c(F)cncc1NC(=O)c1c(N)nn2cc(F)cnc12  grade ≥3 creatinine increased (human patients; oral, up to 40 mg once daily): 0%
C=CC(=O)Nc1cc(Nc2ncc(C(=O)OC(C)C)c(-c3cn(C)c4ccccc34)n2)c(OC)cc1N(C)CCN(C)C  fatal cardiac failure (NSCLC patients, primary efficacy population; 160 mg once daily, one event): 0.9%
CC1(C)[C@H](C(=O)OCc2cccc(Oc3ccccc3)c2)[C@@H]1C=C(Cl)Cl  enzyme contribution to clearance (measured: CYP2B6; human, age 6 months, recombinant human CYP2B6; 0.1 µM): 2.57%
CO[C@H]1C[C@@H]2CC[C@@H](C)[C@@](O)(O2)C(=O)C(=O)N2CCCC[C@H]2C(=O)O[C@H]([C@H](C)C[C@@H]2CC[C@@H](OC(=O)NCCOCCOCCOCCOCCOCCOCCOCCOCCC(=O)N3CCc4cc(Cn5nc(-c6ccc7oc(N)nc7c6)c6c(N)ncnc65)ccc4C3)[C@H](OC)C2)C[C@@H](O)[C@H](C)/C=C(\C)[C@@H](O)[C@@H](OC)C(=O)[C@H](C)C[C@H](C)/C=C/C=C/C=C/1C  fatigue incidence (patients with advanced solid tumours; intravenous, 8 mg weekly, grade 3 or higher): 0%
COc1cccc(Oc2ccccc2NC(=O)CNC(=O)c2cccc3ccccc23)c1  mean corpuscular volume (esterase-deficient SCID mice, male, blood; oral, 15 mg/kg/day, 14 days, toxicity study): 48 fL and 46 fL and 47 fL
O=c1cc(-c2ccc(O)c(O)c2)oc2cc(O)cc(O)c12  faecal recovery (Sprague-Dawley rat, male, lean, faeces; oral, 100 mg/kg neohesperidin, 48 h; reference: dose): 0.027 ± 0.02%
CCN1[C@@H](C(=O)NC23CCC(C(=O)O)(CC2)CC3)[C@H](c2cccc(Cl)c2F)[C@]2(C(=O)Nc3cc(Cl)ccc32)C12CCCCC2  any-grade lymphocytopenia incidence (patients with advanced solid tumours; oral, dose not given, all doses): 42.9%
NCCCC[C@@H]1NC(=O)[C@@H](Cc2c[nH]c3ccccc23)NC(=O)[C@H](c2ccccc2)NC(=O)[C@@H]2C[C@@H](OC(=O)NCCN)CN2C(=O)[C@H](Cc2ccccc2)NC(=O)[C@H](Cc2ccc(OCc3ccccc3)cc2)NC1=O  placebo-corrected QTcF change (healthy volunteers, male; 1950 µg twice daily, 0.0 h, post hoc): 6.7 ms
CC(C)N(CCc1c[nH]c2cccc(OC(=O)CCCC(=O)O)c12)C(C)C.Cl  AUC(0-inf) (male beagle dog, plasma; intravenous, 1 mg/kg): 568 ng·h/mL
CCC[C@@](N)(CO)CCc1ccc(OCCCCCC(C)C)cc1  Cmax (dog, male hounds, plasma; oral capsule, 5 mg/kg, geometric mean): 385 nM
COc1ccc2nc3cc(Cl)ccc3c(Nc3cc(CN4CCCC4)c(O)c(CN4CCCC4)c3)c2n1  eosinophils (mouse, blood; intraperitoneal, 57 mg/kg): 13.1%
COc1cc2c(Oc3ccc4[nH]c(C)cc4c3F)ccnc2cc1OCC1(N)CC1  grade 3 Fever (paediatric recurrent refractory sarcoma; 8 mg): 0%
CCc1ccc(CC/C=C/c2ccc3c(c2)C(=O)CC3)cc1  sodium (Sprague-Dawley rat, male, serum; oral, 30 mg/kg/day, 14 days): 143 mM
C=CC(=O)Nc1cc(Nc2nccc(Nc3cc(Cl)c(F)cc3C(C)(C)O)n2)c(OC)cc1N1CC[C@@H](N(C)C)C1  patients with dizziness (human patients; oral, 200 mg, treatment-emergent adverse events): 6.3%
C=CC[N+]1([C@H]2C[C@H]3[C@@H]4CC[C@H]5C[C@H](O)[C@@H](N6CCOCC6)C[C@]5(C)[C@H]4CC[C@]3(C)[C@H]2OC(C)=O)CCCC1  terminal half-life (Sprague Dawley rat, plasma; intravenous, dose not given, with: sugammadex 5 mg/kg IV): 17.8 min
Cc1cn(-c2ccc3c(c2)CN(c2ncc(Cc4ccc(-n5cccn5)cc4)s2)CC3)c(C)n1  precipitation concentration (cell culture medium; 14 days): > 10 µM
[NH2][Pt]([NH2])([OH])([OH])([Cl])[Cl]  uptake (ICP-MS, measured: platinum; blood-brain barrier spheroids; 1 µM, 3 h, 37 °C): 0.2 ng/mL
O=C(Nc1ccccc1)C1CCN(C(=O)Oc2cccnc2)CC1  change in Meaning score (psychotropic effects VAS; healthy women; 60 mg; reference: pre-dose baseline, direction not given): 0.1
C[C@]1(CO)Cc2ncn(-c3ccc(C#N)c(Cl)c3)c2C(=O)O1  subjects with drug-related dysgeusia (human; 5 mg single dose): 0%
CC(C)C[C@H](NC(=O)[C@H](CCCCN)NC(=O)OCC1c2ccccc2-c2ccccc21)C(=O)N[C@H](C(=O)N[C@@H](Cc1ccccc1)C(=O)N[C@@H](Cc1ccccc1)C(=O)N[C@@H](CCCCN)C(=O)NCC(=O)N[C@@H](Cc1ccccc1)C(=O)N[C@@H](C)C(=O)N[C@@H](Cc1c[nH]c2ccccc12)C(=O)N[C@@H](CC(N)=O)C(=O)N[C@H](C(=O)N[C@H]1CSSC[C@@H](C(=O)N[C@@H](Cc2c[nH]cn2)C(=O)N[C@@H](CCCNC(=N)N)C(=O)N[C@@H](CCCNC(=N)N)C(=O)N[C@@H](C)C(=O)N[C@@H](CC(N)=O)C(N)=O)NC(=O)[C@H](C(C)C)NC(=O)[C@H](CCCNC(=N)N)NC(=O)[C@H](C(C)C)NC(=O)CNC(=O)[C@H](CC(N)=O)NC(=O)[C@H](CCCNC(=N)N)NC(=O)[C@H](Cc2ccc(O)cc2)NC(=O)[C@H](C(C)C)NC1=O)C(C)C)C(C)C  mean corpuscular volume (ICR mice, blood; intraperitoneal, 5 mg/kg, day 5): 40.6 ± 0.72 fL
C[C@@H]1OC(=O)NN=C1c1ccc(-c2ccc(F)cc2)c(C(F)(F)F)c1  patients with adverse event (phase I trial, measured: Dyspnoea worst grade 2; human patients; 5 mg loading then 0.25 mg daily): 0%
CC(C)n1c(C2CCNCC2)nc2c([N+](=O)[O-])c(Br)c(Br)cc21  AE leading to interruption (patients with AML; 125 mg, septic shock): 2%
C=CC(=O)N1CC[C@H](n2nc(C#Cc3cc(OC)cc(OC)c3)c3c(N)ncnc32)C1  adverse drug reaction incidence (patients with advanced solid tumours; oral, dose not given, Dysgeusia, any grade, QD, with: lanthanum carbonate hydrate): 8.3%
CC[C@H](C)[C@H](NC(=O)[C@H](CC(C)C)NC(=O)[C@H](Cc1c[nH]c2ccccc12)NC(=O)[C@H](CCC(N)=O)NC(=O)[C@@H](NC(=O)[C@H](Cc1ccccc1)NC(=O)[C@H](C)NC(=O)[C@H](CCCCNC(=O)COCCOCCNC(=O)COCCOCCNC(=O)CC[C@H](NC(=O)CCCCCCCCCCCCCCCCCCC(=O)O)C(=O)O)NC(=O)[C@H](CCC(N)=O)NC(=O)[C@H](C)NC(=O)[C@@H](NC(=O)[C@H](CCCCN)NC(=O)[C@H](CC(=O)O)NC(=O)[C@H](CC(C)C)NC(=O)C(C)(C)NC(=O)[C@@H](NC(=O)[C@H](CO)NC(=O)[C@H](Cc1ccc(O)cc1)NC(=O)[C@H](CC(=O)O)NC(=O)[C@H](CO)NC(=O)[C@@H](NC(=O)[C@H](Cc1ccccc1)NC(=O)[C@@H](NC(=O)CNC(=O)[C@H](CCC(=O)O)NC(=O)C(C)(C)NC(=O)[C@@H](N)Cc1ccc(O)cc1)[C@@H](C)O)[C@@H](C)O)[C@@H](C)CC)[C@@H](C)CC)C(C)C)C(=O)N[C@@H](C)C(=O)NCC(=O)NCC(=O)N1CCC[C@H]1C(=O)N[C@@H](CO)C(=O)N[C@@H](CO)C(=O)NCC(=O)N[C@@H](C)C(=O)N1CCC[C@H]1C(=O)N1CCC[C@H]1C(=O)N1CCC[C@H]1C(=O)N[C@@H](CO)C(N)=O  AUC(0-tau) (human, plasma; subcutaneous, 5 mg first dose, week 1, 15 mg group, tau 168 h, geometric mean): 54400 ng·h/mL
CN[C@@H](C)C(=O)N[C@H]1CN(S(=O)(=O)c2cccc(S(=O)(=O)N3CC[C@H]4CC[C@@H](C(=O)NC(c5ccccc5)c5ccccc5)N4C(=O)[C@@H](NC(=O)[C@H](C)NC)C3)c2)CC[C@H]2CC[C@@H](C(=O)NC(c3ccccc3)c3ccccc3)N2C1=O  treatment-related AST elevation incidence (patients with advanced solid tumours; 30 mg, phase I monotherapy): 33.3%
O=C1Nc2cc3[nH]nc(-c4ccncc4)c3cc2CN1Cc1ccccc1  patients with dyspnoea (CTCAE v4.03; advanced solid tumour patients; intravenous, 7.2 mg/kg, schedules 1/2): 0%
O=S(=O)(Nc1ccccc1)c1ccc(NC(=S)Nc2ccccc2)cc1  haemoglobin (male mouse, blood; oral, 80 mg/kg daily, 14 days): 13.8 g/dL

For quick reference, copied from above:
Cn1cncc1-c1c(F)cncc1NC(=O)c1c(N)nn2cc(F)cnc12  grade ≥3 creatinine increased (human patients; oral, up to 40 mg once daily): 0%
O=S(=O)(Nc1ccccc1)c1ccc(NC(=S)Nc2ccccc2)cc1  haemoglobin (male mouse, blood; oral, 80 mg/kg daily, 14 days): 13.8 g/dL
NCCCC[C@@H]1NC(=O)[C@@H](Cc2c[nH]c3ccccc23)NC(=O)[C@H](c2ccccc2)NC(=O)[C@@H]2C[C@@H](OC(=O)NCCN)CN2C(=O)[C@H](Cc2ccccc2)NC(=O)[C@H](Cc2ccc(OCc3ccccc3)cc2)NC1=O  placebo-corrected QTcF change (healthy volunteers, male; 1950 µg twice daily, 0.0 h, post hoc): 6.7 ms
O=c1cc(-c2ccc(O)c(O)c2)oc2cc(O)cc(O)c12  faecal recovery (Sprague-Dawley rat, male, lean, faeces; oral, 100 mg/kg neohesperidin, 48 h; reference: dose): 0.027 ± 0.02%
